Measurements from different studies.
Lines come from different studies, so protocols differ. Values joined by “and” are separate records of one study, mostly repeats; a detail may differ.
Target: Macrophage colony-stimulating factor 1 receptor (CSF1R, Homo sapiens, UniProt P07333)
Chain of UniProt P07333 (whole entry, looked up): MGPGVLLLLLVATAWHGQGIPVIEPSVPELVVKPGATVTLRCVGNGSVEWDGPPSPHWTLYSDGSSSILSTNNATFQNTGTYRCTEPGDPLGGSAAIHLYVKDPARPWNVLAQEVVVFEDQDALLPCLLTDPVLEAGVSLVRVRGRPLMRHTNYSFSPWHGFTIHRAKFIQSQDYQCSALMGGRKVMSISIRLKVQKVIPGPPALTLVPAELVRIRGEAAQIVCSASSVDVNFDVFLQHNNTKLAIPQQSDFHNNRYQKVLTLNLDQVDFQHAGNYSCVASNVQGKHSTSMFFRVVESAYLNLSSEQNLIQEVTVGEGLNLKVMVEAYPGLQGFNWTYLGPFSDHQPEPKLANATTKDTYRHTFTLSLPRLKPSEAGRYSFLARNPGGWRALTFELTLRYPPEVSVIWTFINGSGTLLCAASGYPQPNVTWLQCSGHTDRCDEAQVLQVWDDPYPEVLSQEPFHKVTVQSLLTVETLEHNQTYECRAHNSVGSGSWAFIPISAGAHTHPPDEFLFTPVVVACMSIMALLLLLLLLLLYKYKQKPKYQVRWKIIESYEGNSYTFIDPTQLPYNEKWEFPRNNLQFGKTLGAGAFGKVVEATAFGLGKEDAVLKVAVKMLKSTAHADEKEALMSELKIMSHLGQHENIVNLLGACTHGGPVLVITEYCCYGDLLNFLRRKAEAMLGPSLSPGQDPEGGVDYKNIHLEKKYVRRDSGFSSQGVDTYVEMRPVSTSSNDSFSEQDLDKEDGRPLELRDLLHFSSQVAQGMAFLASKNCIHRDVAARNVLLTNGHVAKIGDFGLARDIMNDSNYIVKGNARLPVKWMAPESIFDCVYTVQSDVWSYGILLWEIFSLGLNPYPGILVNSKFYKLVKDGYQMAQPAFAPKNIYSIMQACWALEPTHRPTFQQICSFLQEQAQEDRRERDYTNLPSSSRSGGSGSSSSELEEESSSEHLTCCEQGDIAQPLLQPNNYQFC

C=CC(=O)Nc1cccc(-c2cnc3[nH]cc(C(=O)NC(C)(C)C)c3n2)c1 gave an inhibition of 36% and 38% (kinase activity; 0.1 µM).
COc1c(OCCCN2CCOCC2)ccc2c1N=C(NC(=O)c1cnc(N)nc1)N1CCN=C21 gave a remaining activity of 123% (kinase activity, inhibitor; 1 µM; baseline: untreated control).
With O=C=[N][Ru-4]123([n]4c5ccc(O)cc5c5c6c(c7cc(F)c[n+]1c7c54)C(=O)NC6=O)[S+]1CC[S+]2CC[S+]3CC1 (stereo not drawn) the remaining activity was 68% (enzyme activity; 100 nM, human enzyme, with: 10 µM ATP; baseline: untreated).
Nc1ncc(-c2cc(-c3cnn(CC(F)(F)F)c3)ncc2F)nc1C(=O)NC1CNCC(F)C1 (stereo not drawn) gave a remaining activity of 96.1% (enzyme activity; 1 µM; baseline: DMSO control).
COC(=O)[C@@]1(C)C=C(C(=O)Nc2cccc(C(=O)Nc3ccc(Nc4nccc(-c5cccnc5)n4)c(C)c3)c2)C(=O)CC1 has a remaining activity of 89% (enzyme activity, inhibitor, radiometric; 1 µM).
Under “activity vs control”, CNC(=O)C[C@H](Cc1ccc(C#N)cc1)NC(=O)c1cc(-c2ccc(CN[C@H](C)c3ccc(C)cc3)o2)ccc1Cl is recorded as 114% (enzyme activity, inhibitor; 1 µM).
The inhibition of Cc1nc2c(F)cc(-c3nc(Nc4ccc(CNC(=O)CCCCCCC(=O)NO)cc4)ncc3F)cc2n1C(C)C is reported as 73% (enzyme activity, inhibitor; 1 µM).
CCn1cc(C(=O)O)c(=O)c2c(N)c(F)c(NC3CCCCC3)cc21 gave an inhibition of 0.1% (kinase activity; 0.1 µM, with: ATP at Km).
Under “activity vs control”, O=C(Cc1ccc(OCc2ccccc2)cc1)NC1(C(=O)O)CCN(C(=O)c2ccc(-c3cccc(Cl)c3)cc2)CC1 is recorded as 81% (enzyme activity, inhibitor; 10 µM).
With Cc1cccc(O[C@H]2CCC[C@@H](C(C)CNCc3ccncc3)C2)c1 (relative stereo) the inhibition was 4% (cell-free assay; 1 µM).
The inhibition of NC(=O)[C@@H](O)C[C@H]1CCc2sc3ncnc(O[C@H]4CC[C@H](N5CCOCC5)CC4)c3c21 is reported as 1% (enzyme activity, inhibitor; 10 µM).
For O=C(Nc1ccc(Oc2ncnc3[nH]cc(-c4ccccc4)c23)c(F)c1)c1c2n(n(-c3cc(F)ccc3F)c1=O)CCCC2, the inhibition was 4% (enzyme activity, inhibitor; 0.5 µM).

Excerpt of the above:
With Cc1cccc(O[C@H]2CCC[C@@H](C(C)CNCc3ccncc3)C2)c1 (relative stereo) the inhibition was 4% (cell-free assay; 1 µM).
